{"data": "Published values from different studies", "ache": "Acetylcholinesterase (ache, Electrophorus electricus, UniProt O42275)", "Tripartite terminase subunit 3 C-terminal nuclease domain": "Tripartite terminase subunit 3, C-terminal nuclease domain (Human betaherpesvirus 5, UniProt P16732)", "AKR1C2": "Aldo-keto reductase family 1 member C2 (AKR1C2, Homo sapiens, UniProt P52895)", "note": "± marks the error that the study gave.", "sequence of UniProt P52895 (whole entry, looked up)": "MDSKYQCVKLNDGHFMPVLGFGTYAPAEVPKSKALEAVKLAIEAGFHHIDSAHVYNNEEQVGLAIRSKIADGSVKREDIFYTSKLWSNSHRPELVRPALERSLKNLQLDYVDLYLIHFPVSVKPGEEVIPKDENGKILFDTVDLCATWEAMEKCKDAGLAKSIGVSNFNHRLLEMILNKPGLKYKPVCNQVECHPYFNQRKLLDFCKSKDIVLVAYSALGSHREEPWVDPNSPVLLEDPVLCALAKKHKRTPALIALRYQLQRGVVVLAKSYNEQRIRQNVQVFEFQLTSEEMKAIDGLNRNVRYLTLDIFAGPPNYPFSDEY", "sequence of UniProt P16732 (whole entry, looked up)": "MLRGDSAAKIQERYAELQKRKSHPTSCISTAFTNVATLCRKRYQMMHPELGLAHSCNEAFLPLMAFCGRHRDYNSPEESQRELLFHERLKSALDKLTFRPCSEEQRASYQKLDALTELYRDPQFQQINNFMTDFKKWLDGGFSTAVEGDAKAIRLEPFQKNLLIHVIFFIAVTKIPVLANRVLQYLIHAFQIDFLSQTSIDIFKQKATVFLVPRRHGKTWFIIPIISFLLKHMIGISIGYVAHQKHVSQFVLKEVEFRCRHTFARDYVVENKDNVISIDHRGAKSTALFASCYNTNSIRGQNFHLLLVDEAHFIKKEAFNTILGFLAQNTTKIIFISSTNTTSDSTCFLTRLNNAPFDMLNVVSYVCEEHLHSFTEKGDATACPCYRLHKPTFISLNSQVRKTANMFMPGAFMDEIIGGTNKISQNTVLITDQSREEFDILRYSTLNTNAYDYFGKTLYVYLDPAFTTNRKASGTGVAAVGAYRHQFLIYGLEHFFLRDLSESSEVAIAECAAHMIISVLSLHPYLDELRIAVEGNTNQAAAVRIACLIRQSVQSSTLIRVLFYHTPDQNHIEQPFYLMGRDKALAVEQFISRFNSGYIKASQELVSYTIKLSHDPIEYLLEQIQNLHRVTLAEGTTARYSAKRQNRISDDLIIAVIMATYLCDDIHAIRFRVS", "sequence of UniProt O42275 (whole entry, looked up)": "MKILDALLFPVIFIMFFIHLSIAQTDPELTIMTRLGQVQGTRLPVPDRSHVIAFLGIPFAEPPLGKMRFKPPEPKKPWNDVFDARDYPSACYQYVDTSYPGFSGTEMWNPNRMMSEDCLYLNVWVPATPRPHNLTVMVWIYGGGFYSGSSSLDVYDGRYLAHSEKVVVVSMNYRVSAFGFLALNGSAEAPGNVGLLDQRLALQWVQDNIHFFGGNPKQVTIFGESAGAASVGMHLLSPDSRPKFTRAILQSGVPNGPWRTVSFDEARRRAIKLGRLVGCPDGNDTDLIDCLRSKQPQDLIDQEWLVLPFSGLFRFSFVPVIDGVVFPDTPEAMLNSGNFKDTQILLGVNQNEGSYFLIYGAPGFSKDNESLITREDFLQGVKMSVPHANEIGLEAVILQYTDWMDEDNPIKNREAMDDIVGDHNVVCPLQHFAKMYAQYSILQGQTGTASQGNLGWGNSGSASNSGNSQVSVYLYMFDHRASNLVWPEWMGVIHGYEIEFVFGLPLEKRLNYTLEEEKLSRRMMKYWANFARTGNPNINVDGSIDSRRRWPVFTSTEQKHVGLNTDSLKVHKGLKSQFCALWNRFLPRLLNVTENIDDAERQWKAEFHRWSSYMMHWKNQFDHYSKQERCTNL", "sequence of UniProt Q15858 (whole entry, looked up)": "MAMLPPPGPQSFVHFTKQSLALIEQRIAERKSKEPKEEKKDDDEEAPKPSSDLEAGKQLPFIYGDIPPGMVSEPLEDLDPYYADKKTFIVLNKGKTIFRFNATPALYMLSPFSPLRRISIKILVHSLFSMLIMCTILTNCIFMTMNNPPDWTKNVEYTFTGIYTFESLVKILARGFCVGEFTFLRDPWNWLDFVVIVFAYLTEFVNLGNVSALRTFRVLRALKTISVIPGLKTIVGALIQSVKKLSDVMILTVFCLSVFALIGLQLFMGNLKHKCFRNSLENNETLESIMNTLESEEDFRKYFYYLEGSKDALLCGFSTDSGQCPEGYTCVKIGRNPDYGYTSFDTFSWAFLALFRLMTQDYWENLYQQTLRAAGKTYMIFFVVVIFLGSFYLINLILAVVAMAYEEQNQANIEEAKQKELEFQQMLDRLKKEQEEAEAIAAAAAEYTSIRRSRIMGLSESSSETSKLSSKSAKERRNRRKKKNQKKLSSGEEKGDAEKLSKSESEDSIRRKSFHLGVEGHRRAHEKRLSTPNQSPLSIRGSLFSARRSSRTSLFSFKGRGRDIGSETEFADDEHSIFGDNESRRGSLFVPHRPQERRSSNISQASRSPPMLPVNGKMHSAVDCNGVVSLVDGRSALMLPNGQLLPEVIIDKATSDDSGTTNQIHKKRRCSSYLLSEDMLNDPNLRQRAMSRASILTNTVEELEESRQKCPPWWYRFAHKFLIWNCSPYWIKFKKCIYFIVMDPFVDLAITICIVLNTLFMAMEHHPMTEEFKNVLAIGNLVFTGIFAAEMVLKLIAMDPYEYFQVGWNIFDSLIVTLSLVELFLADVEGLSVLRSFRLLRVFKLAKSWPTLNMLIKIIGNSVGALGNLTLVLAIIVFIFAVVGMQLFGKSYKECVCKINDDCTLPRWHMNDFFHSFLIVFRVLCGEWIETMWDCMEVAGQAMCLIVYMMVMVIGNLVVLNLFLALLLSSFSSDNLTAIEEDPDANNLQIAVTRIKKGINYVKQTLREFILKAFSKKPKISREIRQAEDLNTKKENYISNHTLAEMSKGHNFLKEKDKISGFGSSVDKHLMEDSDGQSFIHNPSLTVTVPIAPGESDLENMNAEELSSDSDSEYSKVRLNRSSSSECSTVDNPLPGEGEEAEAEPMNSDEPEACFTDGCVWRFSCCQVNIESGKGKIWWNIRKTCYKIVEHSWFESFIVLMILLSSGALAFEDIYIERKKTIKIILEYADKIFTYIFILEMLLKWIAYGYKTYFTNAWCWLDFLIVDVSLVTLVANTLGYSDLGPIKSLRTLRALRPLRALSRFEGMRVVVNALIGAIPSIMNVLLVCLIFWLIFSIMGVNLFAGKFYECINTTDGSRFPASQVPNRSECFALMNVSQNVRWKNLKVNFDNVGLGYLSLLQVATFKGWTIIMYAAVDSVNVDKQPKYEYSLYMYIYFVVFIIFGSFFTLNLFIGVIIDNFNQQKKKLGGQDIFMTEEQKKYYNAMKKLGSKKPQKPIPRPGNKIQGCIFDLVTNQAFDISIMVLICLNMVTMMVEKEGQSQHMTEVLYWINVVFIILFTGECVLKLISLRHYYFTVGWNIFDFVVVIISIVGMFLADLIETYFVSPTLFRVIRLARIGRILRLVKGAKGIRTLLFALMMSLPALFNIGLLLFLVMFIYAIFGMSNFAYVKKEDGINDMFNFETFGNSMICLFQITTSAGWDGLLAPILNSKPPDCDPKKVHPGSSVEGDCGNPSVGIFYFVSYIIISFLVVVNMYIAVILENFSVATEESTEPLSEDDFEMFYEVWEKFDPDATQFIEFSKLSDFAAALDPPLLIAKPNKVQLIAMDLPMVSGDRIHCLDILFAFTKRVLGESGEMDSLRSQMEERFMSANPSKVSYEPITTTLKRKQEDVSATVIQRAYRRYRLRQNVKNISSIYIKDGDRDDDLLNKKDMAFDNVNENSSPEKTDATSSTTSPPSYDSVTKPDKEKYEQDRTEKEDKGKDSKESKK", "sequence of UniProt P08246 (whole entry, looked up)": "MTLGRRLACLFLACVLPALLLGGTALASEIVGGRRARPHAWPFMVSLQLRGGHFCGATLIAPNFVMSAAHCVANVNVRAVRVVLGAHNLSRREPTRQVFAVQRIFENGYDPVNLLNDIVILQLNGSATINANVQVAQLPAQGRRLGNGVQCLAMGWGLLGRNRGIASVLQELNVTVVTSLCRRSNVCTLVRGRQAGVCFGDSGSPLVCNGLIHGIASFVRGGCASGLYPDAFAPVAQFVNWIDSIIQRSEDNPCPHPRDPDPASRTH", "sequence of UniProt Q04828 (whole entry, looked up)": "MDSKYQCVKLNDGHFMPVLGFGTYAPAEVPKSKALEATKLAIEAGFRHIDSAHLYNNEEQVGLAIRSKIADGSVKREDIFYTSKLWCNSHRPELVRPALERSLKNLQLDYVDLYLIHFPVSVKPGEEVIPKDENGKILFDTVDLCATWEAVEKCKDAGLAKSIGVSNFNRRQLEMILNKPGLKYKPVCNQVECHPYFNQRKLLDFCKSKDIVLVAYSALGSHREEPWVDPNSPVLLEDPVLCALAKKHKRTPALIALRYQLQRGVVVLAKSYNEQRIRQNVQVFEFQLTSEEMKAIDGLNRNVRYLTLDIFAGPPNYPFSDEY", "sequence of UniProt P34975 (whole entry, looked up)": "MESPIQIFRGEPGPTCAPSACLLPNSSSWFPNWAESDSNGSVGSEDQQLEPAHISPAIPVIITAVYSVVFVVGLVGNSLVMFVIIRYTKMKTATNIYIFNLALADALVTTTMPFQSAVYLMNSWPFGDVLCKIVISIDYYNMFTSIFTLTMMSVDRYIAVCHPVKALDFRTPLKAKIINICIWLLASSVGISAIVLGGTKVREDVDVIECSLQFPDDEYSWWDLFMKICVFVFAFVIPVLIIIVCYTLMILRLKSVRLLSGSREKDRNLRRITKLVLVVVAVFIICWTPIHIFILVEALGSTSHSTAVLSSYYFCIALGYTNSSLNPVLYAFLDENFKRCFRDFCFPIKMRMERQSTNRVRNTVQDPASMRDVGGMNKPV", "sequence of UniProt Q8R2Y0 (whole entry, looked up)": "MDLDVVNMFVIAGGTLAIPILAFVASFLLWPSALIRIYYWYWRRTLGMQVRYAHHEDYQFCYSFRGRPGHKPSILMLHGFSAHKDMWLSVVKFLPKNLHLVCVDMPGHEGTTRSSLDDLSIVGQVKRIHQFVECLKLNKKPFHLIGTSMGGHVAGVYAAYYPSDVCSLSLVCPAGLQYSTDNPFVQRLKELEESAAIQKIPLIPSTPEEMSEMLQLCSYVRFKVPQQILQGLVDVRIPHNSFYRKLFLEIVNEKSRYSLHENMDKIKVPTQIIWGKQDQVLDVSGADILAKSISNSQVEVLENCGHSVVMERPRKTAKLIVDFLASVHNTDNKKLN"}
{"Compound": "Cc1ccnc(Nc2c3c(nc4ccccc24)CCC(C)C3)c1 (stereo not shown)", "target": "ache", "assay": "enzyme activity, inhibitor, Ellman", "conditions": "100 µM", "inhibition": "77.4%"}
{"Compound": "O=C(NCCCCCn1ccc2ccc(F)cc21)Oc1cccc(F)c1", "target": "Monoglyceride lipase (MGLL, Homo sapiens, UniProt Q99685)", "assay": "enzyme activity, inhibitor", "conditions": "10 µM", "inhibition": "39%"}
{"Compound": "COC(=O)N(C)[C@@H](Cc1ccccc1)C(=O)N[C@@H](Cc1ccccc1)C(=O)N[C@@H](Cc1ccc(O)cc1)C(=O)N[C@@H](CCCNC(=N)N)C(=O)N[C@@H](CC(C)C)C(=O)N[C@@H](CCCNC(=N)N)C(=O)N[C@@H](CCCNC(=N)N)C(=O)N[C@H](C)C(=O)N[C@@H](CCCNC(=N)N)C(=O)N1CCC[C@H]1C(=O)N[C@@H](CCCCN)C(N)=O", "target": "Kappa-type opioid receptor (Oprk1, Rattus norvegicus, UniProt P34975)", "assay": "adenylyl cyclase activity, agonist", "system": "CHO cells", "conditions": "10 µM", "how to read": "baseline: dynorphin A(1-13) amide", "inhibition": "> 40%"}
{"Compound": "O=C(NCc1ccc(F)cc1F)c1cn(Cc2ccc(F)cc2)cc(O)c1=O", "target": "Tripartite terminase subunit 3 C-terminal nuclease domain", "assay": "endonuclease activity, inhibitor, ELISA", "conditions": "20 µM", "inhibition": "14%"}
{"Compound": "C[C@@]12CC[C@H]3[C@@H](CCC4=CC(=O)C=C[C@@]43F)[C@@H]1CCC2=O", "target": "AKR1C2", "assay": "enzyme activity, inhibitor, absorbance", "conditions": "100 µM, pH 9", "inhibition": "75%"}
{"Compound": "COc1ccc2cc(/C=C/c3cc[n+](Cc4ccc(F)cc4)cc3)ccc2c1", "target": "Amyloid-beta precursor protein, amyloid-beta 1-42 peptide (Rattus norvegicus, UniProt P08592)", "assay": "Abeta42 self-aggregation, thioflavin T", "conditions": "5 µM", "inhibition": "60%"}
{"Compound": "CC(=O)NC(Cc1ccc(Br)c(Cl)c1)C(=O)N[C@@H](C)C(=O)N1CCC[C@H]1C(=O)N1CCC[C@H]1C(=O)N[C@@H](CCC(=O)O)C(=O)N[C@@H](Cc1c[nH]cn1)C(=O)N[C@@H](CO)C(=O)N[C@H](C(=O)N[C@@H](C)C(N)=O)[C@@H](C)OP(=O)(O)O (stereo partly shown)", "target": "MAP kinase-activated protein kinase 2 (MAPKAPK2, Homo sapiens, UniProt P49137)", "conditions": "10 µM", "inhibition": "0.34 ± 0.02%"}
{"Compound": "CC(C)C[C@@H]1NC(=O)[C@@H](NC(=O)CN)CSSC[C@@H]2NC(=O)[C@@H]3CSSC[C@@H](C(=O)N[C@@H](CC(N)=O)C(=O)N[C@@H](Cc4ccccc4)C(=O)N[C@@H](CO)C(=O)N[C@@H](Cc4ccccc4)C(N)=O)NC(=O)[C@H](CC(C)C)NC(=O)[C@H](CCCCN)NC(=O)[C@H](Cc4ccccc4)NC(=O)[C@H](CC(C)C)NC(=O)[C@H](CCCCN)NC(=O)[C@H](CO)NC(=O)[C@H](CSSC[C@H](NC(=O)[C@H](CCCCN)NC(=O)[C@H](Cc4c[nH]c5ccccc45)NC(=O)[C@H](Cc4c[nH]c5ccccc45)NC(=O)[C@H](Cc4ccccc4)NC(=O)[C@H](CCC(=O)O)NC1=O)C(=O)N[C@@H](CC(N)=O)C(=O)N1CCC[C@H]1C(=O)N[C@@H](CC(N)=O)C(=O)N[C@@H](CC(=O)O)C(=O)N[C@@H](CC(=O)O)C(=O)N[C@@H](CCCCN)C(=O)N3)NC(=O)[C@H](CCCCN)NC(=O)[C@H](CC(C)C)NC(=O)[C@H](CCCCN)NC(=O)[C@@H]1CCCN1C(=O)[C@H](CCCNC(=N)N)NC2=O", "target": "Piezo-type mechanosensitive ion channel component 1 (Piezo1, Mus musculus, UniProt E2JF22)", "assay": "mechanosensitive current, whole-cell patch clamp", "system": "HEK293 transfected", "conditions": "4.0 µM, holding potential -60 mV", "inhibition": "58 ± 6%"}
{"Compound": "O=C(O)/C=C/c1ccc(O)cc1", "target": "alpha-amylase", "assay": "enzyme activity, DNS", "conditions": "500 µg/mL", "inhibition": "76.5 ± 2.8%"}
{"Compound": "O=C(NCc1cc(Cl)ccc1F)c1cn(Cc2ccc(F)cc2)cc(O)c1=O", "target": "Tripartite terminase subunit 3 C-terminal nuclease domain", "assay": "endonuclease activity, inhibitor, ELISA", "conditions": "20 µM", "inhibition": "7%"}
{"Compound": "Cc1cccnc1Nc1c2c(nc3ccccc13)CCC(C)C2 (stereo not shown)", "target": "ache", "assay": "enzyme activity, inhibitor, Ellman", "conditions": "100 µM", "inhibition": "> 90%"}
{"Compound": "CCS(=O)(=O)N1CCN(CC(=O)Nc2ccc(/C=C/C(=O)c3ccc(OC)c(OC)c3)cc2)CC1", "target": "Amine oxidase [flavin-containing] B (MAOB, Homo sapiens, UniProt P27338)", "assay": "enzyme activity, inhibitor, fluorescence", "conditions": "100 µM", "inhibition": "27.8%"}
{"Compound": "CC(C)[C@H]1NC(=O)[C@H](CO)NC(=O)c2cc3cc(c2)C(=O)NC[C@H](NC(=O)[C@H](Cc2c[nH]cn2)NC(=O)[C@H](Cc2ccc(C(F)(F)P(=O)(O)O)cc2)NC(=O)[C@@H]2CCCN2C1=O)C(=O)N[C@@H](Cc1ccccc1)C(=O)N[C@@H](Cc1ccc2ccccc2c1)C(=O)N[C@@H](CCCNC(=N)N)C(=O)N[C@@H](CCCNC(=N)N)C(=O)N[C@@H](CCCNC(=N)N)C(=O)N[C@@H](CCCNC(=N)N)C(=O)N[C@H](C(=O)N[C@@H](CCCCN)C(N)=O)CNC3=O", "target": "Tyrosine-protein phosphatase non-receptor type 7 (PTPN7, Homo sapiens, UniProt P35236)", "assay": "enzyme activity, inhibitor, absorbance", "conditions": "1 µM", "inhibition": "≤ 10%"}
{"Compound": "COc1ccnc(Nc2c3c(nc4ccccc24)CCCC3)c1", "target": "ache", "assay": "enzyme activity, inhibitor, Ellman", "conditions": "50 µM", "inhibition": "85.2%"}
{"Compound": "O=C(NCc1c(F)cccc1F)c1cn(Cc2ccc(F)cc2)cc(O)c1=O", "target": "Tripartite terminase subunit 3 C-terminal nuclease domain", "assay": "endonuclease activity, inhibitor, ELISA", "conditions": "20 µM", "inhibition": "6%"}
{"Compound": "C[C@@]12CC[C@@H]3c4cc(Cl)c(O)c(Cl)c4CC[C@H]3[C@@H]1CCC2=O", "target": "AKR1C2", "assay": "enzyme activity, inhibitor, absorbance", "conditions": "100 µM, pH 9", "inhibition": "81.5%"}
{"Compound": "Cc1ccc2c(Nc3ccc4ccccc4n3)c3c(nc2c1)CCCC3", "target": "ache", "assay": "enzyme activity, inhibitor, Ellman", "conditions": "100 µM", "inhibition": "44.1%"}
{"Compound": "COc1cc(-c2oc3cc(OC)c(OC)c(O)c3c(=O)c2OC)ccc1O", "target": "Neutrophil elastase (ELANE, Homo sapiens, UniProt P08246)", "assay": "enzyme activity, inhibitor", "conditions": "10 µM", "inhibition": "20.3 to 27.1%"}
{"Compound": "OB(O)c1ccccc1-c1nnn[nH]1", "target": "Beta-lactamase (ampC, Escherichia coli K-12, UniProt P00811)", "assay": "inhibitor", "conditions": "10 µM, added: CENTA substrate", "inhibition": "< 10%"}
{"Compound": "C[C@]12CC[C@@H]3c4ccc(O)c(Cl)c4CC[C@H]3[C@@H]1CCC2=O", "target": "AKR1C2", "assay": "enzyme activity, inhibitor, absorbance", "conditions": "10 µM, pH 9", "inhibition": "70%"}
{"Compound": "S=C(NCc1ccccn1)NCc1ccccn1", "target": "Pancreatic alpha-amylase (AMY2, Sus scrofa, UniProt P00690)", "assay": "enzyme activity, inhibitor", "conditions": "250 µg/mL", "inhibition": "56%"}
{"Compound": "c1ccc2ncc(Nc3c4c(nc5ccccc35)CCCC4)cc2c1", "target": "ache", "assay": "enzyme activity, inhibitor, Ellman", "conditions": "50 µM", "inhibition": "34.7%"}
{"Compound": "COc1ccc(CNc2c(NC3CCN(Cc4ccccc4)CC3)c(=O)c2=O)cc1OC", "target": "ache", "assay": "enzyme activity, inhibitor, Ellman", "conditions": "25 µM", "inhibition": "70.1%"}
{"Compound": "C[C@]12CCC[C@H]1[C@@H]1CCc3c(cc(Br)c(O)c3Br)[C@H]1CC2", "target": "Aldo-keto reductase family 1 member C1 (AKR1C1, Homo sapiens, UniProt Q04828)", "assay": "enzyme activity, inhibitor, absorbance", "conditions": "10 µM, pH 9", "inhibition": "33%"}
{"Compound": "Clc1ccc2nc3c(c(Nc4ccc5ccccc5n4)c2c1)CCCC3", "target": "ache", "assay": "enzyme activity, inhibitor, Ellman", "conditions": "100 µM", "inhibition": "> 90%"}
{"Compound": "CC(C)CC(O)(CC(C)C)c1cn(C(=O)N2CCCC2)nn1", "target": "Monoacylglycerol lipase ABHD6 (Abhd6, Mus musculus, UniProt Q8R2Y0)", "assay": "enzyme activity", "system": "mouse, brain", "conditions": "i.p., 0.8 mg/kg, apparent, not considered true", "inhibition": "50 to 60%"}
{"Compound": "Cc1ccnc(Nc2c3c(nc4ccccc24)CCCC3)c1", "target": "ache", "assay": "enzyme activity, inhibitor, Ellman", "conditions": "100 µM", "inhibition": "69.9%"}
{"Compound": "NCC(CCC(N)C(=O)O)CC1OC(n2cnc3c(N)ncnc32)C(O)C1O (stereo not shown)", "target": "Protein arginine N-methyltransferase 8 (PRMT8, Homo sapiens, UniProt Q9NR22)", "assay": "enzyme activity, inhibitor", "conditions": "20 µM", "inhibition": "> 50%"}
{"Compound": "O=c1c(Nc2ccc(Br)cc2)c(NC2CCN(Cc3ccccc3)CC2)c1=O", "target": "ache", "assay": "enzyme activity, inhibitor, Ellman", "conditions": "12.5 µM", "inhibition": "40.4%"}
{"Compound": "Cc1ccc(N2CC3CCC(C2)N3C)cc1C(=O)N[C@H](C)c1cc(-c2cnn(C)c2)nc2ccccc12", "target": "Caspase-3 (CASP3, Homo sapiens, UniProt P42574)", "assay": "enzyme activity", "conditions": "concentration not given", "inhibition": "no inhibition"}
{"Compound": "Cc1c(C(=O)Nc2cccc(C(F)(F)F)c2)cc(-c2ccccc2)n1CCCN1CCOCC1", "target": "Transient receptor potential cation channel subfamily V member 4 (TRPV4, Homo sapiens, UniProt Q9HBA0, D546A)", "assay": "calcium influx, inhibitor", "system": "HeLa cells transfected", "conditions": "10 nM, D546A mutant, added: 30% hypotonicity", "inhibition": "no inhibition"}
{"Compound": "CC(C)(C)c1ccc(Nc2c3c(nc4ccccc24)CCCC3)cc1", "target": "ache", "assay": "enzyme activity, inhibitor, Ellman", "conditions": "50 µM", "inhibition": "10.9%"}
{"Compound": "O=C(Cc1ccc(F)cc1)N1CCN(Cc2noc(-c3cccc(Cl)c3)n2)CC1", "target": "Sodium channel protein type 9 subunit alpha (SCN9A, Homo sapiens, UniProt Q15858)", "assay": "sodium current, whole-cell patch clamp", "system": "HEK293, stable", "conditions": "20 µM", "inhibition": "1 ± 3%"}
{"Compound": "CC(C)(C)c1ccc(C(=O)Nc2cc(Cl)c(Br)cc2C(=O)O)cc1", "target": "Hexokinase-4 (GCK, Homo sapiens, UniProt P35557)", "assay": "enzyme activity, inhibitor", "conditions": "10 µM", "inhibition": "11.9%"}
{"Compound": "Nc1ccc(CCNc2c(NC3CCN(Cc4ccccc4)CC3)c(=O)c2=O)cc1", "target": "ache", "assay": "enzyme activity, inhibitor, Ellman", "conditions": "25 µM", "inhibition": "69.5%"}
{"Compound": "CC(C)[C@H]1NC(=O)C[C@H]2/C=C/CCSSC[C@@H](NC1=O)C(=O)N[C@H](Cc1cccc3ccccc13)C(=O)NCC(=O)O2", "target": "Phosphatidylinositol 4,5-bisphosphate 3-kinase catalytic subunit alpha isoform, with p85 (PIK3CA, Homo sapiens, UniProt P42336)", "assay": "enzyme activity, inhibitor, mobility shift", "conditions": "10 µM", "inhibition": "60.4%"}
{"Compound": "C[C@@](O)(C(F)F)[C@H](NC(=O)c1ccc(C#CC#CC2CC2)cc1)C(=O)NO", "target": "Collagenase 3 (MMP13, Homo sapiens, UniProt P45452)", "assay": "enzyme activity, inhibitor", "conditions": "30 µM", "inhibition": "≤ 30%"}
{"note": "For quick reference, copied from above:"}
{"Compound": "CC(C)CC(O)(CC(C)C)c1cn(C(=O)N2CCCC2)nn1", "target": "Monoacylglycerol lipase ABHD6 (Abhd6, Mus musculus, UniProt Q8R2Y0)", "assay": "enzyme activity", "system": "mouse, brain", "conditions": "i.p., 0.8 mg/kg, apparent, not considered true", "inhibition": "50 to 60%"}
{"Compound": "Cc1ccnc(Nc2c3c(nc4ccccc24)CCCC3)c1", "target": "ache", "assay": "enzyme activity, inhibitor, Ellman", "conditions": "100 µM", "inhibition": "69.9%"}
{"Compound": "NCC(CCC(N)C(=O)O)CC1OC(n2cnc3c(N)ncnc32)C(O)C1O (stereo not shown)", "target": "Protein arginine N-methyltransferase 8 (PRMT8, Homo sapiens, UniProt Q9NR22)", "assay": "enzyme activity, inhibitor", "conditions": "20 µM", "inhibition": "> 50%"}
{"Compound": "O=c1c(Nc2ccc(Br)cc2)c(NC2CCN(Cc3ccccc3)CC2)c1=O", "target": "ache", "assay": "enzyme activity, inhibitor, Ellman", "conditions": "12.5 µM", "inhibition": "40.4%"}
{"Compound": "Cc1ccc(N2CC3CCC(C2)N3C)cc1C(=O)N[C@H](C)c1cc(-c2cnn(C)c2)nc2ccccc12", "target": "Caspase-3 (CASP3, Homo sapiens, UniProt P42574)", "assay": "enzyme activity", "conditions": "concentration not given", "inhibition": "no inhibition"}
